Results collected from several papers.
Parts stem from different laboratories: compare values within a part only. Substitutions count along the parent as printed.

Block 1
Target: ABI1, truncated, D143A, DHFR fusion (Arabidopsis thaliana)
Technique: DHFR PCA, deep sequencing
Medium: yeast
Notes: methotrexate growth selection, single substitutions
Together with: (+)-ABA 17 µM
Reference: wild-type fitted maximum
Direction: higher = stronger binding
Quantity: relative binding score
Starting sequence: PYL1, truncated, DHFR fusion (Arabidopsis thaliana); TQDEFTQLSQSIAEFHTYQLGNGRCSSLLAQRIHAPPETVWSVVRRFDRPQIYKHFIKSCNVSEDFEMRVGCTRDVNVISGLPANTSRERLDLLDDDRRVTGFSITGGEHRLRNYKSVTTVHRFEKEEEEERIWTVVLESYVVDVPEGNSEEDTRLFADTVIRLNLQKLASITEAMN
R99H: 92%
S27L: -0.0691%
L82S: 4.95%
V118A: 31.3%
S150F: 16.5%
N165L: -7.61%
E128R: 80.5%
Q2A: 88.1%
L29K: 32.2%
T135H: 11.8%

Block 2
Target: Histone acetyltransferase KAT6A, both winged helices, GST fusion (KAT6A, Homo sapiens, UniProt Q92794, residues 1-181)
Technique: protein binding microarray
Form: double-stranded DNA, one strand shown
Medium: in vitro
Concentration: not given
Notes: 8-mer, flanks averaged, mean of 2 arrays, mostly near background
Reference: not given
Direction: higher = stronger binding
Quantity: E-score
Target sequence (chain): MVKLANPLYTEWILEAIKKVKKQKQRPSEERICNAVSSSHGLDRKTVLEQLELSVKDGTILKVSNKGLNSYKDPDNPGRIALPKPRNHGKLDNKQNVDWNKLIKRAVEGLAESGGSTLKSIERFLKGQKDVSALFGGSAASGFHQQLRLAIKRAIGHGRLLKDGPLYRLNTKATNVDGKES
AGTCACTA: -0.104
GTTGACCA: -0.151
ACAACTGA: 0.0325
CTTATGAC: -0.0204
CACTAGCC: 0.194
CATTTAAC: -0.0567
ATCTTAAA: -0.0238
AGCACCTA: -0.104
AAGTGACG: 0.0776
ATCTGCCA: -0.181
GACAGACA: 0.0233
CCAGAAAC: -0.124
AAACGGCT: 0.179
GTGACCTA: -0.0843
GGTTAAAC: 0.0834
GACGCTAC: 0.145
ACTATGGG: -0.222
AGGGCGAT: 0.0572
CCTCAAAC: 0.0903
GTATAGCA: -0.0537
GTCCCACA: -0.00861

Block 3
Target: UBE2Z UBC core domain (UniProt Q9H832)
Technique: yeast two-hybrid
Medium: yeast
Notes: mostly zero background
Reference: not given
Direction: higher = stronger interaction
Quantity: lacZ reporter activity
B1: VPS41 RING domain (UniProt P49754); chain KGVLVDEENICESCLSPILPSDAAKPFSVVVFHCRHMFHKECLPMPSMNSAAQFCNICSAKNRGPGSAI
B2: TRAF5 RING domain (UniProt O00463); chain FVERLEERYKCAFCHSVLHNPHQTGCGHRFCQHCILSLRELNTVPICPVDKEVIKSQEVFK
B3: TRIM5 RING domain (UniProt Q9C035); chain LREVKLSPEGQKVDHCARHGEKLLLFCQEDGKVICWLCERSQEHRGHHTFLTEEVAREYQVKL
B4: RNF208 RING domain (UniProt Q9H0X6); chain SSAAAGEPLECPTCGHSYNVTQRRPRVLSCLHSVCEQCLQILYESCPKYKFISCPTCRRETVLFTDYG
B5: TRIML1 RING domain (UniProt Q8N9V2); chain LMENLREELTCFICLDYFSSPVTTECGHSFCLVCLLRSWEEHNTPLSCPECWRTLEGPHFQS
B6: DTX4 RING domain (UniProt Q9Y2E6); chain QKVRHPPDEDCTICMERLTAPSGYKGPQPTVKPDLVGKLSRCGHVYHIYCLVAMYNNGNKDGSLQCPTCKTIYGVKTGTQ
Target sequence (chain): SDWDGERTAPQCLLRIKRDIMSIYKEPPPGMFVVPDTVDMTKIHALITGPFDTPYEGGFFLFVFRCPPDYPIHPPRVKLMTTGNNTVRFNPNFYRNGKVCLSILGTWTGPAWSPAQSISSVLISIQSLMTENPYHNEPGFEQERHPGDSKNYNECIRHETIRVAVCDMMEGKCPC
B1 (VPS41 RING domain): 0
B2 (TRAF5 RING domain): 0
B3 (TRIM5 RING domain): 0
FQGDVDEDLICPICSGVLEEPVQAPHCEHAFCNACITQWFSQQQTCPVDRSVVTVAHLRP (RNF41 RING domain (UniProt Q9H4P4)): 1080
B4 (RNF208 RING domain): 0
GAAPGPEAAECLVCSELALLVLFSPCQHRTVCEECARRMKKCIRCQVVVSKKLRPD (MIB2 RING domain (UniProt Q96AX9)): 0
B5 (TRIML1 RING domain): 0
ASLPTSEEDLCPICYAHPISAVFQPCGHKSCKACINQHLMNNKDCFFCKTTIVSVEDWE (RNF123 RING domain (UniProt Q5XPI4)): 0
B6 (DTX4 RING domain): 0
MPIRALCTICSDFFDHSRDVAAIHCGHTFHLQCLIQWFETAPSRTCPQCRIQVGKRTIIN (TRAIP RING domain (UniProt Q9BWF2)): 0
PAELEVQASECVVCLEREAQMIFLNCGHVCCCQQCCQPLRTCPLCRQDIAQRLRIY (LRSAM1 RING domain (UniProt Q6UWE0)): 0

Block 4
Target: CCNE1, cyclin fold, Cln2 fusion (human)
Technique: yeast growth competition, sequencing
Medium: yeast
Notes: strong parent motif
Reference: not given
Direction: higher = stronger binding
Quantity: normalised enrichment score
Starting sequence: E2F1 docking peptide (human); PPVKRRLDLETDH
PPVKRRLDLEHDH [T11H]: 0.874
PPVKRRLDLETDW [H13W]: 1.32
PPVKRKLDLETDH [R6K]: 1.17
PPVKRRLDLEWDH [T11W]: 4.22
PPVKRRLDLETPH [D12P]: 2.33
DPVKRRLDLETDH [P1D]: 0.24
PPVKHRLDLETDH [R5H]: -0.236
PPVKRRLDLDTDH [E10D]: 3.67
PNVKRRLDLETDH [P2N]: 2.5
PPVKRGLDLETDH [R6G]: 0.441
PPVKRRHDLETDH [L7H]: 0.49
PPVKYRLDLETDH [R5Y]: 0.0954
GPVKRRLDLETDH [P1G]: 1.11

Block 5
Target: RNA binding protein fox-1 homolog 2, RRM domain, GST-SBP tag (RBFOX2, Homo sapiens, UniProt O43251-10, residues 100-194)
Technique: RNA Bind-n-Seq
Form: RNA
Medium: in vitro
Concentration: 365 nM
Notes: natural RNA segment, single round, ends assumed
Reference: no-protein control
Direction: higher = stronger binding
Quantity: RBNS enrichment (R)
All sequences stand within: GGGAGUUCUACAGUCCGACGAUC … UGGAAUUCUCGGGUGCCAA
Residues (chain): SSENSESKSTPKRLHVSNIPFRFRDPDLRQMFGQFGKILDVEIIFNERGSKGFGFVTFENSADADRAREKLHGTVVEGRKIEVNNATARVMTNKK
GGCCUCCGAUUCACUCCUGUCCCCUUCCCUGACUUGGUGCUCACAGGCACCUCACUGGGGAUUAUGACCAGGGUCUAGACGAGCUUGAGUCUGAAUUGAGUUUGUAUUUC: 0.317
AUUCAUAGAUUAUUCAGCCUUUGCAGGACUUGGAUUCAGGGUUUUACUCAGUCCCUUUACCUUAGGUGGAAUCUUCUUAAAUUGAAAUUUUUGGUAAGGAAUUCAUUUCA: 0.339
UUGCUGGAAGGAGAAAAGGAAGGAAUCCCCCGAAAAUCAAAGCAGUCAGAAAAACCAGAGCGACUGUUAAGGGCUUUGGCCAGCUUUCUAGGCAGCGAGUGCAGGUGACA: 0.751
GUAGAAAGAUCUCAGGAAAGCACCUUUCUCCUUUUCAGGGUGACCGUGCUCUUCACACUCUCUGAGGCCUCAGUCCAUGUCCUAUAUCAGUUUCUCUUUUGUGUGCUUUA: 0.238
AAAAACAAAAUGGAAAAAGUCACAAAAAAGUUUGUAUAAAGACGUAUUUUUGUACUACAUGGGGACUCUUCCUGCAUGUCAGCAAUAAAACUUCCUGAUCUGGAGCCACC: 0.566
GUAAUCUGGUAUGCCAUAGGAUGUCAGAUAAUACCACUGGUUAAAAUAAAGCCUAGUUUUCAAAUUCAGUUGGUUUCUCAGGUUUAUUCUGUUCCUCUUCUUGGUUGUGG: 0.552
AAAGGAACAUUUUAACUGUAAAGGCUAGAGACAAGAAGACAAAAGAGUAGAUCAUUUUAAUAAGAAUUAUUUAAUCCCAUACAAGUUUUCUUUGCAGGAGCUAGCCCAAA: 0.552
CCCACAGCACCACGUCCUCGAAUUCUCAGACGACACCUGGAGACUGUCCCGACACAGCGACGCUCCCCUGAGAGGUUUCUGGGGCCCGCUGCGUGCCAUCACUCAACCAU: 0.696
GACUUGCGGUUAAUUAUGCAAAUGAUAGUUUGUGAUAAUUGGUCCAGUUUUACGAACAACAGAUUUCUAAAUUAGAGAGGUUAACAAGACAGAUGAUUACUAUGCCUCAU: 0.317
UGUGUGGUGAUUCUGGGCUCUCCACAACCAGCUCAAAGCAGCUAGCACCCGUGCUCACUGUUGUUGGACGGGCUGGUCCACAGCCUCAGACCCACGCUCUGCCGAGAUAC: 0.292
CGCUGUGCUCCAGGGAGAGGAGCCAAGAAGCAAGCGGGCUGCUGGGAGUCCCUGCACUGCCAUCUGGCCGGGACGGAGGCGCCUGCCCGGUCUCCAGGCUCCUCUGAGCU: 1.04
AACUUGGUGAAGGAUGGUGCUCAUCCUUAUGAUGAUGGAUAAGGGGGAGGGGUUUGGGUCCUCACACUGAGAGCUUAUACCCAGUUGGAGCCCAAGAAGAGCUAGACUGA: 1

Block 6
Target: RING finger protein unkempt homolog, zinc fingers 1-6, GST-SBP tag (UNK, Homo sapiens, UniProt Q9C0B0, residues 30-357)
UniProt Q9C0B0, sequence (30-357, looked up): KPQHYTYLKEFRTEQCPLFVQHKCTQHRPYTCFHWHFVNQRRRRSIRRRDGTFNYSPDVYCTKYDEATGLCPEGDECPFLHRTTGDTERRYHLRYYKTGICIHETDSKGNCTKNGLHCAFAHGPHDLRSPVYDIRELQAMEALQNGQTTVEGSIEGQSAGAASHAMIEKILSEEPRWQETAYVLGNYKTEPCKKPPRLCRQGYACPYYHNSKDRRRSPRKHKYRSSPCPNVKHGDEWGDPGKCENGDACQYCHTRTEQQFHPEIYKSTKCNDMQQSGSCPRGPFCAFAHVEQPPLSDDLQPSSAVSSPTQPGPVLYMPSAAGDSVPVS
Technique: RNA Bind-n-Seq
Form: RNA
Medium: in vitro
Concentration: not given
Notes: RNA with constant flanks, ends assumed
Reference: input RNA pool
Direction: higher = stronger binding
Quantity: bound/input enrichment
All sequences stand within: GGGAGUUCUACAGUCCGACGAUC … CAACAGAGGAUUGAGCAUCA
CUUGGUGGCGAAUGUGUUGCGGGUCCUGUUGGGCUGCUUUCUGUAUUGUCUCCUAACCCUCCCGUUUUAAUUGGACACUUCUUUGCUGUUGCAAUCUAUGCCGUGUAUUUUUGCUUUAAG: 0.527 ratio
AAUGUGCUGUGUCAAGAGCAGCGGCGGUGACGCAGGUGUAGAGAUUUGUCAGAGCUCAUGCCGUUGCCGUCUUAAGGCCUGUGCAUUUCACUGCGUGGGUUACUCAAUUUAUAAAGCAAA: 0.148 ratio
AAAGCAACUUUUAUCAAAGUACCCCAGAACCAAAAUGGCAAAUCUAAAGGGUAUGCAUUUACCGAGUUUGCUUCAUUCGAAGACGCUAAAGAAGCUUUAAAUUCCUGUAAUAAAAGGGAA: 0.115 ratio
GAUGUCAUCGAAGACAAAUUGAAGGGAGAGAUGAUGGAUCUCCAACAUGGCAGCCUUUUCCUCCGAACACCAAAGAUUGUCUCUGGCAAAGACUAUAAUGUAACUGCAAACUCCAAGCUG: 0.115 ratio
UACCUUGAAAGAAGAAAAGGUUCUUACUGCUUGGUCCUUGAUUUAUCACACAAAGCAGAACCGUAUUUUUAUAUUUAAAUGUAAAGACAAAAAACUAUAUGUAUGGUUUUGUGGAUUAUG: 0.107 ratio
GAAAUAACAAGUCUUGAUACAGAGAAUAUAGAUGAAAUUUUAAACAAUGCUGAUGUUGCUUCCGUAAAUUUUUAUGCUGACUGGUGUCGUUUCAGUCAGAUGUUGCAUCCAAUUUUUGAG: 9.86 ratio

A few entries again (block 3):
B2 (TRAF5 RING domain): 0
GAAPGPEAAECLVCSELALLVLFSPCQHRTVCEECARRMKKCIRCQVVVSKKLRPD (MIB2 RING domain (UniProt Q96AX9)): 0
MPIRALCTICSDFFDHSRDVAAIHCGHTFHLQCLIQWFETAPSRTCPQCRIQVGKRTIIN (TRAIP RING domain (UniProt Q9BWF2)): 0
FQGDVDEDLICPICSGVLEEPVQAPHCEHAFCNACITQWFSQQQTCPVDRSVVTVAHLRP (RNF41 RING domain (UniProt Q9H4P4)): 1080
